Results of several laboratories.
Values joined by “and” are separate records of one study, mostly repeats; a detail may differ. ± gives the spread as reported.
UniProt Q9H4B4, sequence (whole entry, looked up): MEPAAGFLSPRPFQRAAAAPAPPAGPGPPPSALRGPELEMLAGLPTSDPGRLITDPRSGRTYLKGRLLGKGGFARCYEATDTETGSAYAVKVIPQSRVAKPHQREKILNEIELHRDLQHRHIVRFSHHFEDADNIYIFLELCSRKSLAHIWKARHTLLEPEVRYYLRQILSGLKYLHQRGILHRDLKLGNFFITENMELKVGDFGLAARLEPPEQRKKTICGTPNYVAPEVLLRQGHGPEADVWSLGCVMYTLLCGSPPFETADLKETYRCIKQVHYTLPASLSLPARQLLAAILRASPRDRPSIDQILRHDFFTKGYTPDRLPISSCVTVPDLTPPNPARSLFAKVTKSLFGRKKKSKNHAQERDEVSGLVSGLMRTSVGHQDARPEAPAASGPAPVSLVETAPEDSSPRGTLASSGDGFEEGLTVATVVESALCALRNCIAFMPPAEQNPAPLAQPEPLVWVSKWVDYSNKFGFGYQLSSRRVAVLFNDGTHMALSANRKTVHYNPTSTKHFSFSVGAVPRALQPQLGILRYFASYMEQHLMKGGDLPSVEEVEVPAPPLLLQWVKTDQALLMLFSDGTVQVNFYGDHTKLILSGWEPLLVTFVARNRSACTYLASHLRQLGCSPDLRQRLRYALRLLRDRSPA
UniProt P33032, sequence (whole entry, looked up): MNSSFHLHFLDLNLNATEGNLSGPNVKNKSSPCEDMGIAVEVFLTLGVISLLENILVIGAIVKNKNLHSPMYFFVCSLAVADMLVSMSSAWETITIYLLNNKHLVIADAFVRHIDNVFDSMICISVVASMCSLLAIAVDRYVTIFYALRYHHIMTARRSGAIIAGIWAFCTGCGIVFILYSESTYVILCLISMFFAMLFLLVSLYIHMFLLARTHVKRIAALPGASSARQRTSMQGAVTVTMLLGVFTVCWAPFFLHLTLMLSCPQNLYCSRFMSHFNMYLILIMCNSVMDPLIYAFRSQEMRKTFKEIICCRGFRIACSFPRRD
UniProt Q16891, sequence (whole entry, looked up): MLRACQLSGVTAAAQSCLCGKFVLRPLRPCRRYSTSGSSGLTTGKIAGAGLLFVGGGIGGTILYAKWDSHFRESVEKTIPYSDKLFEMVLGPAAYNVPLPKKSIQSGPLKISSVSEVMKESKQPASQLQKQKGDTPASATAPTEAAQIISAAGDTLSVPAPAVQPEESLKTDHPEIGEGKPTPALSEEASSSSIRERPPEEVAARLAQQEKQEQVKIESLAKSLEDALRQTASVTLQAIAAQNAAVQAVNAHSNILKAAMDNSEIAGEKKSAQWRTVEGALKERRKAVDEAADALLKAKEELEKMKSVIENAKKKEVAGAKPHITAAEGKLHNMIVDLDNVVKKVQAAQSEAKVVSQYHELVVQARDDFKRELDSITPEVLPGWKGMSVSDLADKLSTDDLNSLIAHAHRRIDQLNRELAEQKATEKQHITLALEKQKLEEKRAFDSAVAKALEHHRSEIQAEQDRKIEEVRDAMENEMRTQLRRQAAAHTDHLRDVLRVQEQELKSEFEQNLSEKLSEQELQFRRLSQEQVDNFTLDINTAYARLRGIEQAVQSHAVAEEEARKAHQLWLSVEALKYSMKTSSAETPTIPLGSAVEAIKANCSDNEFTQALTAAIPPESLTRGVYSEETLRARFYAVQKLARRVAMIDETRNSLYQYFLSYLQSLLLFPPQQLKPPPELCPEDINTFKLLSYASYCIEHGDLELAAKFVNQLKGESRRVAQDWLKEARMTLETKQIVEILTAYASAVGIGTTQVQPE

Compound	tested on	test	system	conditions	scale	measurement	result
C[C@H](NC(=O)[C@H](CCCNC(=N)N)NC(=O)[C@H](Cc1c[nH]c2ccccc12)NC(=O)[C@H](CCCNC(=N)N)NC(=O)[C@H](Cc1c[nH]c2ccccc12)NC(=O)[C@H](Cc1c[nH]c2ccccc12)NC(=O)[C@H](Cc1c[nH]c2ccccc12)NC(=O)[C@H](CCCNC(=N)N)NC(=O)[C@H](Cc1c[nH]c2ccccc12)NC(=O)[C@@H](N)CCCNC(=N)N)C(N)=O	PK-15					LC50	> 512 µM
COc1cc(Nc2ncc(F)c(Nc3ccc4c(n3)NC(=O)C(C)(C)O4)n2)cc(OC)c1OC	MC5R (Homo sapiens, UniProt P33032)					IC50	> 10 µM
C=C1C(=O)[C@]23[C@H](O)[C@H]1CC[C@H]2[C@@]12CO[C@]3(O)[C@@H](O)[C@@H]1C(C)(C)CC[C@@H]2O	THP-1 ASC-GFP monocytes	MTT		24 h		maximum tolerated dose	3.11 µg/mL
O=c1ccc2ccccc2o1	HepG2	item: HIF1alpha		concentration not given, 24 h, inflammation and pH panel		probability of response	37.5%
Cc1cc(C)c(/C=C/c2nc(N)[nH]c(=O)c2Br)c(C)c1	HeLa	cell morphology alteration				minimum cytotoxic concentration	100 µM
CC[C@H](C)[C@H](NC(=O)[C@H](CCCCN)NC(=O)[C@H](CO)NC(=O)CNC(=O)[C@H](CC(C)C)NC(=O)[C@@H](N)Cc1c[nH]c2ccccc12)C(=O)N[C@@H](CCCCN)C(=O)N[C@@H](C)C(=O)N[C@@H](C)C(=O)N[C@@H](CCCCN)C(=O)N[C@@H](CCSC)C(=O)N[C@@H](CCCCN)C(=O)N[C@H](C(=O)NCC(=O)N[C@@H](CCSC)C(=O)N[C@@H](Cc1c[nH]c2ccccc12)C(=O)NCC(=O)N[C@@H](C)C(=O)N[C@H](C(=O)NCC(=O)N[C@@H](CC(C)C)C(=O)N[C@@H](CCCNC(=N)N)C(=O)N[C@@H](Cc1c[nH]cn1)C(=O)N[C@@H](CC(N)=O)C(=O)O)C(C)C)C(C)C	HUVEC	cytotoxicity, MTT		24 h, 37 °C		IC50	> 200 µM
Oc1ccc(C(c2ccc(O)cc2)(C(F)(F)F)C(F)(F)F)cc1	HepG2 spheroids	annexin V-FITC/PI flow cytometry		40 µM, 24 h		necrotic cells	6.66 ± 2.67%
Cc1cc(C(=O)NC(C)(C)COc2cccc3c2C(N)=NS(=O)(=O)N3)cc(C)n1	Salmonella typhimurium	Ames test, initial	TA1535	500 µg/plate, together with: rat liver S9	reference: solvent control	revertant ratio	1.3
O=S(=O)(c1ccc(O)cc1)c1ccc(O)cc1	HepG2 spheroids	annexin V-FITC/PI flow cytometry		10 µM, 24 h		late apoptotic cells	16.1 ± 5.01%
COc1ccnc(C(=O)N[C@H]2COC(=O)[C@H](Cc3ccccc3)[C@@H](OC(=O)C(C)C)[C@H](C)OC2=O)c1OCOC(=O)C(C)C	mammalian cells	mammalian forward mutation		concentration not given		forward mutation	negative
Cn1c(C(=O)Nc2ccc3c(c2)OCCO3)cc2c(=O)n3ccccc3nc21	Vero	MTT		1.6 µM, 24 (unit not given)		viability	80.1%
C[C@H]1CN(c2n[nH]c3nc(N[C@H]4CC[C@H](NS(=O)(=O)CCC(F)(F)F)CC4)ncc23)CCO1	MICOS complex subunit MIC60 (Homo sapiens, UniProt Q16891)	Kinobeads competition, item: IMMT		20 µM, unit not given	reference: vehicle	remaining binding	1.19
CC[C@H](C)[C@H](NC(=O)[C@H](Cc1ccccc1)NC(=O)[C@H](CCC(=O)O)NC(=O)[C@H](CCCNC(=N)N)NC(=O)[C@H](C)NC(=O)[C@H](C)NC(=O)[C@H](CCC(N)=O)NC(=O)[C@H](CCC(=O)O)NC(=O)[C@H](CCC(=O)O)NC(=O)[C@H](CC(C)C)NC(=O)[C@H](Cc1ccc(O)cc1)NC(=O)[C@H](CO)NC(=O)[C@H](CO)NC(=O)[C@@H](NC(=O)[C@H](CC(=O)O)NC(=O)[C@H](CO)NC(=O)[C@@H](NC(=O)[C@H](Cc1ccccc1)NC(=O)[C@@H](NC(=O)CNC(=O)[C@H](CCC(=O)O)NC(=O)[C@H](C)NC(=O)CCc1c[nH]cn1)[C@@H](C)O)[C@@H](C)O)C(C)C)C(=O)N[C@@H](C)C(=O)N[C@@H](Cc1c[nH]c2ccccc12)C(=O)N[C@@H](CC(C)C)C(=O)N[C@H](C(=O)N[C@@H](CCCNC(=N)N)C(=O)NCC(=O)N[C@@H](CCCNC(=N)N)C(=O)N[C@@H](CCCCNC(=O)COCCOCCNC(=O)COCCOCCNC(=O)CC[C@H](NC(=O)CCCCCCCCCCCCCCCCC(=O)O)C(=O)O)C(=O)NCC(=O)NCC(=O)N[C@@H](CO)C(=O)N[C@@H](CCCCNc1c(NCCCCCN(O)C(=O)CCC(=O)NCCCCCN(O)C(=O)CCC(=O)NCCCCCN(O)C(C)=O)c(=O)c1=O)C(=O)O)C(C)C [zirconium-89 labelled]		gamma counting	rat, stomach-duodenum content	intravenous, 3 nmol/kg, 24 h		tissue uptake	0.09 %ID/g
CO[C@H]1C[C@@H]2CC[C@@H](C)[C@@](O)(O2)C(=O)C(=O)N2CCCC[C@H]2C(=O)O[C@H]([C@H](C)C[C@@H]2CC[C@@H](OC(=O)NCCOCCOCCOCCOCCOCCOCCOCCOCCC(=O)N3CCc4cc(Cn5nc(-c6ccc7oc(N)nc7c6)c6c(N)ncnc65)ccc4C3)[C@H](OC)C2)C[C@@H](O)[C@H](C)/C=C(\C)[C@@H](O)[C@@H](OC)C(=O)[C@H](C)C[C@H](C)/C=C/C=C/C=C/1C		phase 1 dose escalation	advanced solid tumour patients	intravenous, 8 mg weekly, any grade		deaths due to TEAEs	0%
C[S+](C)[O-]	U138	MTS		4 days		CC50	1.38%
CC(C)C[C@H](NC(=O)[C@H](C)NC(=O)[C@@H](NC(=O)[C@H](CCCNC(=N)N)NC(=O)[C@H](CC(C)C)NC(=O)[C@H](Cc1c[nH]c2ccccc12)NC(=O)[C@@H]1CCCN1C(=O)[C@@H](N)CCCCN)C(C)C)C(=O)N[C@@H](CS)C(=O)N1CCC[C@H]1C(=O)NCC(=O)O	H9c2	WST-1		512 µM, 24 h		viability	65.5% and 101% and 71.9%
COc1ccc(N2C(=O)N(c3c(C)cccc3Cl)Cc3cnc(Nc4ccc(C5CCN(C)CC5)cc4OC)nc32)nc1	PLK3 (Homo sapiens, UniProt Q9H4B4)	kinase activity		0.5 µM		inhibition	1.27%
Oc1ccc(C2(c3ccc(O)cc3)c3ccccc3-c3ccccc32)cc1	HepG2 spheroids, dissociated	annexin V-FITC/PI flow cytometry		40 µM, 24 h		late apoptotic cells	9.02 ± 1.91%
N#C[C@@]1(n2ccc(N)nc2=O)O[C@H](CO)[C@@H](O)[C@H]1O	CHO			8 µM, without S9		micronucleated cells	0.32%
